# Assay results pooled from the literature.
# ± marks the error that the study gave.
# Organism: Escherichia coli
Compound,assay,system,setting,how to read,MIC
C/C(=N\Nc1nc(-c2ccccc2)cs1)c1ccc2c(c1)sc1nc(=O)c(C#N)cn12,broth microdilution,,,,< 36 µg/mL
C/C(=N/NC(=N)N)c1nnn(-c2ccc(C#CC(C)(C)O)cc2)c1C,"microbial growth, broth dilution",BW25113,,,> 64 µg/mL
[N-]=[N+]=NC1COC(=O)N1/N=C/c1ccc([N+](=O)[O-])o1 (centres unmarked),"microbial growth, broth dilution",ATCC25922,18 h,,1.56 µg/mL
C=CCO[C@H]1[C@H](O)[C@@H](N)[C@@H](O[C@H]2[C@H](O[C@@H]3O[C@H](CO)[C@@H](O[C@H]4O[C@@H](CN)[C@@H](O)[C@H](O)[C@H]4N)[C@H]3O)[C@@H](O)[C@H](N)C[C@@H]2N)O[C@@H]1CO,broth microdilution,clinical isolate AG 001,,,64 µg/mL
Cc1cc(=O)nc(NC(=O)NCCCCCCNC(=O)NCCCCCCNC(=O)OCCOCCOCCOCCOCCOCCOCC(=O)N[C@@H](CC(C)C)C(=O)N[C@@H](CCCCN)C(=O)N[C@@H](CC(C)C)C(=O)N[C@@H](CC(C)C)C(=O)N[C@@H](CCCCN)C(=O)N[C@@H](CCCCN)C(=O)N[C@@H](CC(C)C)C(=O)N[C@@H](CC(C)C)C(=O)N[C@@H](CCCCN)C(=O)N[C@@H](CCCCN)C(=O)N[C@@H](CC(C)C)C(=O)N[C@@H](CC(C)C)C(=O)N[C@@H](CCCCN)C(=O)N[C@@H](CC(C)C)C(=O)N[C@@H](CC(C)C)C(N)=O)[nH]1,,"ATCC 8937, RPMI medium","24 h, 37 °C",,1.9 to 3.7 µM
COc1ccc2ccc3c(c2c1)C=[N+]1C2CCCCC2[N+]2=Cc4cc(C)ccc4[O][Au-]21[O]3.F[P-](F)(F)(F)(F)F (centres unmarked),"bacterial growth, broth microdilution",carbapenem-resistant clinical isolate,24 h,,> 20 µM
O=C1c2ccccc2C(=O)c2c1ccc1c2C(C(=O)NCc2ccccc2)C(=O)C1c1ccccc1 (centres unmarked),microbial growth,,,,> 100 µg/mL
CC(C)C(O)C(NC(=O)[C@H](Cc1ccc(O)cc1)NC(=O)C(Cc1ccc(O)c(Cl)c1)[N+](C)(C)C)C(=O)N[C@@H](C)C(=O)O (some centres unmarked),,ATCC 25922,,,> 100 µM
CCSC1COC(=O)N1/N=C/c1ccc([N+](=O)[O-])o1 (centres unmarked),"microbial growth, broth dilution",ATCC25922,18 h,,50 µg/mL
CCCCN1C(=O)/C(=N\NC(=N)N)c2cc(C)ccc21,"microbial growth, broth dilution",,18 h,,96 µg/mL
CN[C@@H]1[C@H](O)[C@H](NC)[C@H]2O[C@]3(O)[C@H](O[C@@H]2[C@H]1O)O[C@H](C)C[C@@]3(O)CNCCc1ccc(F)cc1,microbial growth,K12,,,12.5 µg/mL
NC[C@@H]1O[C@H](O[C@H]2[C@@H](O)[C@H](O[C@@H]3[C@@H](O)[C@H](N)C[C@H](N)[C@H]3O[C@H]3O[C@H](CO)[C@@H](OCC(O)CO)[C@H](O)[C@H]3N)O[C@@H]2CO)[C@H](N)[C@@H](O)[C@@H]1O (some centres unmarked),broth microdilution,clinical isolate AG 003,,,16 µg/mL
CCn1cc(/C=C/c2sc3ccccc3[n+]2CC)c2ccccc21,"microbial growth, broth dilution",780,,,16 µg/mL
CCCCCCCCCCCN1C(=O)/C(=N\NC(=N)N)c2cc(C)ccc21,"microbial growth, broth dilution",,18 h,,48 µg/mL
COc1c(CC=C(C)C)c(O)cc2c1[C@@H]1Oc3c(ccc(O)c3CC=C(C)C)[C@@H]1CO2,,TISTR 780,,,128 µg/mL
COc1ccc2ccc3c(c2c1)C=[N+]1C2CCCCC2[N+]2=Cc4c(OC)cccc4[O][Au-]21[O]3.F[P-](F)(F)(F)(F)F (centres unmarked),"bacterial growth, broth microdilution",carbapenem-resistant clinical isolate,24 h,,> 20 µM
C=CCOC(=O)c1ccc(NC(=O)c2ccc(NC(=O)c3ccc(NC(=O)C(CC(N)=O)NC(=O)c4ccc(NC(=O)c5ccc([N+](=O)[O-])cc5)cc4)cc3)c(OC(C)C)c2OCC=C)cc1 (centres unmarked),microbial growth,DSM1116,,,> 64 µg/mL
CCOC(=O)c1ccc2c(c1)n(CC)[c]([Au-][Cl])[n+]2CC,broth dilution,DSM 1116,"20 h, 37 °C",,50.1 ± 16.7 µM
CC1=C[C@@H](C)[C@H]2[C@@H]3C(=O)C(Cl)(Cl)C(=O)[C@H](C)C(=O)O[C@@H](C)/C=C/C=C\[C@@H](C)[C@@H]3C=C[C@@H]2C1,"microbial growth, broth dilution","K12, BW25113",,,> 3.2 µg/mL
COc1ccc2ccc3c(c2c1)C=[N+]1C2CCCCC2[N+]2=Cc4cc(C(C)(C)C)cc(C(C)(C)C)c4[O][Au-]21[O]3.F[P-](F)(F)(F)(F)F (centres unmarked),"bacterial growth, broth microdilution",carbapenem-resistant clinical isolate,24 h,,> 20 µM
COCO[C@H]1[C@H](O)[C@@H](N)[C@@H](O[C@H]2[C@H](O[C@@H]3O[C@H](CO)[C@@H](O[C@H]4O[C@@H](CN)[C@@H](O)[C@H](O)[C@H]4N)[C@H]3O)[C@@H](O)[C@H](N)C[C@@H]2N)O[C@@H]1CO,broth microdilution,clinical isolate AG 001,,,128 µg/mL
Cc1cc(/C=C2\Sc3ccccc3N2CCCN2CCCC2)c2ccccc2[n+]1C,"microbial growth, broth dilution","ATCC 8739, ATCC8739",,,8 µg/mL
COc1ccc2c3c(oc2c1CC=C(C)C)-c1cc(CC=C(C)C)c(O)cc1OC3,,TISTR 780,,,128 µg/mL
NCC1OC(OC2C(N)CC(N)C(OC3OC(CO)C(O)C(N)C3O)C2OCCCCCCCCCCCCn2cc(CNc3nc(NCc4cn(CCCCCCCCCCCCOC5C(OC6OC(CN)C(O)CC6N)C(N)CC(N)C5OC5OC(CO)C(O)C(N)C5O)nn4)nc(NCc4cn(CCCCCCCCCCCCOC5C(OC6OC(CN)C(O)CC6N)C(N)CC(N)C5OC5OC(CO)C(O)C(N)C5O)nn4)n3)nn2)C(N)CC1O (centres unmarked),"microbial growth, broth dilution",ATCC25922,,,128 µg/mL
NC[C@@H]1O[C@H](O[C@H]2[C@@H](O)[C@H](O[C@@H]3[C@@H](O)[C@H](N)C[C@H](N)[C@H]3O[C@H]3O[C@H](CO)[C@@H](OCCO)[C@H](O)[C@H]3N)O[C@@H]2CO)[C@H](N)[C@@H](O)[C@@H]1O,broth microdilution,clinical isolate AG 002,,,32 µg/mL
CC1(C)S[C@@H]2[C@H](NC(=O)[C@H](N)c3ccccc3)C(=O)N2[C@H]1C(=O)O,,,,,3.12 µM
CC1=NN(CNc2ccc(C(=O)O)c(O)c2)C(=O)/C1=N/Nn1c(-c2ccccc2)nc2ccccc2c1=O,"microbial growth, broth dilution",,24 h,,24.4 µM
CC(C)C[C@@H](NC(=O)[C@@H](CCCCN)NC(=O)[C@@H](CCCCNC(=O)[C@@H](CC(C)C)NC(=O)[C@@H](CCCCN)NC(=O)[C@@H](CCCCNC(=O)[C@@H](CC(C)C)NC(=O)[C@@H](CCCCN)NC(=O)[C@@H](CCCCNC(=O)[C@@H](CC(C)C)NC(=O)[C@H](N)CCCCN)NC(=O)[C@@H](CC(C)C)NC(=O)[C@H](N)CCCCN)NC(=O)[C@@H](CC(C)C)NC(=O)[C@@H](CCCCN)NC(=O)[C@@H](CCCCNC(=O)[C@@H](CC(C)C)NC(=O)[C@H](N)CCCCN)NC(=O)[C@@H](CC(C)C)NC(=O)[C@H](N)CCCCN)NC(=O)[C@@H](CC(C)C)NC(=O)[C@@H](CCCCN)NC(=O)[C@@H](CCCCNC(=O)[C@@H](CC(C)C)NC(=O)[C@@H](CCCCN)NC(=O)[C@@H](CCCCNC(=O)[C@@H](CC(C)C)NC(=O)[C@H](N)CCCCN)NC(=O)[C@@H](CC(C)C)NC(=O)[C@H](N)CCCCN)NC(=O)[C@@H](CC(C)C)NC(=O)[C@@H](CCCCN)NC(=O)[C@@H](CCCCNC(=O)[C@@H](CC(C)C)NC(=O)[C@H](N)CCCCN)NC(=O)[C@@H](CC(C)C)NC(=O)[C@H](N)CCCCN)C(N)=O,broth microdilution,W3110,37 °C,,1 µg/mL
CSC1COC(=O)N1/N=C/c1ccc([N+](=O)[O-])o1 (centres unmarked),"microbial growth, broth dilution",ATCC25922,18 h,,25 µg/mL
CN(c1ccccc1C(=O)N1CCc2cc(S(=O)(=O)N3CCN(c4cc(C(F)(F)F)cc(Cl)n4)CC3)ccc21)S(C)(=O)=O,"microbial growth, broth dilution",25922,22 h,,0.63 µg/mL
N=C(N)NCCC[C@H](NC(=O)[C@H](Cc1c[nH]c2ccccc12)NC(=O)[C@H](CCC(N)=O)NC(=O)[C@H](Cc1c[nH]c2ccccc12)NC(=O)[C@H](CCCNC(=N)N)NC(=O)[C@@H](N)CCCNC(=N)N)C(=O)NCCCC[C@H](NC(=O)[C@H](CCCNC(=N)N)NC(=O)[C@H](Cc1c[nH]c2ccccc12)NC(=O)[C@H](CCC(N)=O)NC(=O)[C@H](Cc1c[nH]c2ccccc12)NC(=O)[C@H](CCCNC(=N)N)NC(=O)[C@@H](N)CCCNC(=N)N)C(=O)NCCCCCC(=O)N[C@@H](CSSC[C@H](NC(=O)CCCCCNC(=O)[C@H](CCCCNC(=O)[C@H](CCCNC(=N)N)NC(=O)[C@H](Cc1c[nH]c2ccccc12)NC(=O)[C@H](CCC(N)=O)NC(=O)[C@H](Cc1c[nH]c2ccccc12)NC(=O)[C@H](CCCNC(=N)N)NC(=O)[C@@H](N)CCCNC(=N)N)NC(=O)[C@H](CCCNC(=N)N)NC(=O)[C@H](Cc1c[nH]c2ccccc12)NC(=O)[C@H](CCC(N)=O)NC(=O)[C@H](Cc1c[nH]c2ccccc12)NC(=O)[C@H](CCCNC(=N)N)NC(=O)[C@@H](N)CCCNC(=N)N)C(N)=O)C(N)=O,broth microdilution,ATCC 43827,"24 h, 37 °C",,5 µM
C/C(=N\Nc1nc(-c2ccc(Cl)cc2)cs1)c1ccc2c(c1)sc1nc(=O)c(C#N)cn12,broth microdilution,,,,< 29 µg/mL
CC(C)c1ccc2c(c1)CCC1C(C)(CN(CC(O)C[N+](C)(C)C)CC(O)C[N+](C)(C)C)CCCC21C (centres unmarked),"microbial growth, broth dilution",ATCC25922,16 h,,250 µg/mL
CCCCc1ccc(N2C(=O)/C(=N\NC(=N)N)c3ccccc32)cc1,"microbial growth, broth dilution",,18 h,,12 µg/mL
COc1ccc2ccc3c(c2c1)C=[N+]1C2CCCCC2[N+]2=Cc4ccc(OCCN5CCCCC5)cc4[O][Au-]21[O]3.F[P-](F)(F)(F)(F)F (centres unmarked),"bacterial growth, broth microdilution",carbapenem-resistant,24 h,,20 µM
CCn1cc(C(=O)NCCNCCO)c(=O)c2cc(OC)c(OCc3cccc(Br)c3)cc21,,ATCC 25922,,≥80% growth inhibition,< 0.25 µg/mL
CCCCO[C@H]1[C@H](O)[C@@H](N)[C@@H](O[C@H]2[C@H](O[C@@H]3O[C@H](CO)[C@@H](O[C@H]4O[C@@H](CN)[C@@H](O)[C@H](O)[C@H]4N)[C@H]3O)[C@@H](O)[C@H](N)C[C@@H]2N)O[C@@H]1CO,broth microdilution,clinical isolate AG 001,,,64 µg/mL
COc1ccc2ccc3c(c2c1)C=[N+]1C2CCCCC2[N+]2=Cc4ccccc4[O][Au-]21[O]3.F[P-](F)(F)(F)(F)F (centres unmarked),"bacterial growth, broth microdilution",carbapenem-resistant,24 h,,> 20 µM

# Repeated from above:
Compound,assay,system,setting,how to read,MIC
NC[C@@H]1O[C@H](O[C@H]2[C@@H](O)[C@H](O[C@@H]3[C@@H](O)[C@H](N)C[C@H](N)[C@H]3O[C@H]3O[C@H](CO)[C@@H](OCCO)[C@H](O)[C@H]3N)O[C@@H]2CO)[C@H](N)[C@@H](O)[C@@H]1O,broth microdilution,clinical isolate AG 002,,,32 µg/mL
CC1(C)S[C@@H]2[C@H](NC(=O)[C@H](N)c3ccccc3)C(=O)N2[C@H]1C(=O)O,,,,,3.12 µM
CC1=NN(CNc2ccc(C(=O)O)c(O)c2)C(=O)/C1=N/Nn1c(-c2ccccc2)nc2ccccc2c1=O,"microbial growth, broth dilution",,24 h,,24.4 µM
CC(C)C[C@@H](NC(=O)[C@@H](CCCCN)NC(=O)[C@@H](CCCCNC(=O)[C@@H](CC(C)C)NC(=O)[C@@H](CCCCN)NC(=O)[C@@H](CCCCNC(=O)[C@@H](CC(C)C)NC(=O)[C@@H](CCCCN)NC(=O)[C@@H](CCCCNC(=O)[C@@H](CC(C)C)NC(=O)[C@H](N)CCCCN)NC(=O)[C@@H](CC(C)C)NC(=O)[C@H](N)CCCCN)NC(=O)[C@@H](CC(C)C)NC(=O)[C@@H](CCCCN)NC(=O)[C@@H](CCCCNC(=O)[C@@H](CC(C)C)NC(=O)[C@H](N)CCCCN)NC(=O)[C@@H](CC(C)C)NC(=O)[C@H](N)CCCCN)NC(=O)[C@@H](CC(C)C)NC(=O)[C@@H](CCCCN)NC(=O)[C@@H](CCCCNC(=O)[C@@H](CC(C)C)NC(=O)[C@@H](CCCCN)NC(=O)[C@@H](CCCCNC(=O)[C@@H](CC(C)C)NC(=O)[C@H](N)CCCCN)NC(=O)[C@@H](CC(C)C)NC(=O)[C@H](N)CCCCN)NC(=O)[C@@H](CC(C)C)NC(=O)[C@@H](CCCCN)NC(=O)[C@@H](CCCCNC(=O)[C@@H](CC(C)C)NC(=O)[C@H](N)CCCCN)NC(=O)[C@@H](CC(C)C)NC(=O)[C@H](N)CCCCN)C(N)=O,broth microdilution,W3110,37 °C,,1 µg/mL
CSC1COC(=O)N1/N=C/c1ccc([N+](=O)[O-])o1 (centres unmarked),"microbial growth, broth dilution",ATCC25922,18 h,,25 µg/mL
